Measurements gathered from unrelated publications.
Parts stem from different laboratories: compare values within a part only. “And” joins repeats or separate records; there may be more than shown. In brackets after ≈: the same amount, converted by molar mass.

Sample 1 — read-out: metabolic stability; medium: liver microsomes
Compound: Cn1cc(-c2cccc(CN3CCC4(CC3)COc3c4ccc4c3CN([C@H]3CCC(=O)NC3=O)C4=O)c2)cn1
| species | time | compound remaining [%] |
| --- | --- | --- |
| human | 0 h | 100 |
| mouse | 45 min | 82.2 |
| human | 30 min | 92 |
| mouse | 15 min | 93.1 |
| monkey | 15 min | 76.2 |
| monkey | 30 min | 58.2 |
| mouse | 30 min | 87.4 |
| human | 5 min | 99.2 |
| human | 45 min | 79.8 |
| rat | 15 min | 88.9 |

Sample 2 — cell line: MDA-MB-468; read-out: cell viability; method: CellCounting-Lite; tested at: 0.3048 nM; temperature: 37 °C; reading: higher = more viable cells
| Structure (SMILES) | luminescence signal |
| --- | --- |
| CCn1cnc2c(NCc3nc4cc(Cl)c(Cl)cc4[nH]3)nc(N3CCN(S(C)(=O)=O)CC3)nc21 | 505000 a.u. and 473000 a.u. and 511000 a.u. |
| CCn1cnc2c(NCc3nc4ccc(F)c(F)c4[nH]3)nc(N3CCn4ncnc4C3)nc21 | 495000 a.u. and 427000 a.u. and 389000 a.u. |
| CCn1cnc2c(NCc3nc4cc(Cl)c(Cl)cc4[nH]3)nc(N3CCN(C(=O)c4ccncc4)CC3)nc21 | 433000 a.u. and 407000 a.u. and 400000 a.u. |
| CCn1cnc2c(NCc3nc4cc(Cl)c(Cl)cc4[nH]3)nc(N3CCC(NC(C)=O)CC3)nc21 | 449000 a.u. and 431000 a.u. and 469000 a.u. |
| CCn1cnc2c(NCc3nc4cc(Cl)c(Cl)cc4[nH]3)nc(N3CCn4ncnc4C3)nc21 | 483000 a.u. and 502000 a.u. and 539000 a.u. |
| CC(=O)N1CCN(c2nc(NCc3nc4cc(Cl)c(Cl)cc4[nH]3)c3ncn(-c4cnn(C)c4)c3n2)CC1 | 457000 a.u. and 471000 a.u. and 524000 a.u. |
| Cn1cc(-n2cnc3c(NCc4nc5cc(Cl)c(Cl)cc5[nH]4)nc(N4CCNCC4)nc32)cn1 | 607000 a.u. and 588000 a.u. and 586000 a.u. |
| CCn1cnc2c(NCc3nc4cc(Cl)c(Cl)cc4[nH]3)nc(N3CCN(C(=O)c4ccccn4)CC3)nc21 | 394000 a.u. and 505000 a.u. and 383000 a.u. |

Sample 3 — cell line: NCI-H292; method: CellTiter-Glo; time: 72 h
Structure (SMILES): Cn1ncc2c1N(CCCCNC/C=C/C#N)c1cc(Cl)ccc1CC2.O=C(O)/C=C\C(=O)O
| tested at | viability |
| --- | --- |
| 0.5 µM | 102% and 94.4% |
| 0.005 µM | 105% and 103% |
| 50 µM | -0.528% and -0.34% and -0.647% |
| 5 µM | 21.1% and 23.6% and 23.2% |
| 0.05 µM | 96.6% and 107% and 108% |

Other studies, line by line — organism: Staphylococcus aureus; strain: USA300
| Compound | with | MIC [µg/mL] |
| --- | --- | --- |
| CCCCC[C@@H](O)CC(=O)N[C@H]1COC(=O)[C@H](CO)NC(=O)[C@H](Cc2ccccc2)NC(=O)[C@@H](Cc2c[nH]c3ccccc23)NC(=O)[C@@H](C(C)O)NC(=O)[C@H](CC(N)=O)NC(=O)[C@@H](C(C)C)NC(=O)[C@H](CC(C)C)NC(=O)[C@@H](Cc2ccc(O)cc2)N(C)C(=O)CNC(=O)[C@H](CO)NC(=O)[C@@H](CC(N)=O)NC1=O (stereo partly shown) | ubiquinone 16 µg/mL | 4 (≈ 2.64 µM) |
| CCCCC[C@@H]1CC(=O)N[C@@H](C(C)C)C(=O)N[C@H](CCC(=O)O)C(=O)N[C@@H](CCCNC(=N)N)C(=O)NCC(=O)N2CCC[C@H]2C(=O)N[C@@H](CC(C)C)C(=O)N[C@H](CCC(N)=O)C(=O)N[C@@H](CCC(=O)O)C(=O)N[C@H](Cc2ccc(O)cc2)C(=O)N[C@H](Cc2c[nH]c3ccccc23)C(=O)NCCCC(=O)O1 | menaquinone 0 µg/mL | 4 (≈ 2.69 µM) |

A few entries again (sample 2):
| Structure (SMILES) | luminescence signal |
| --- | --- |
| CCn1cnc2c(NCc3nc4cc(Cl)c(Cl)cc4[nH]3)nc(N3CCC(NC(C)=O)CC3)nc21 | 449000 a.u. and 431000 a.u. and 469000 a.u. |
| CCn1cnc2c(NCc3nc4cc(Cl)c(Cl)cc4[nH]3)nc(N3CCn4ncnc4C3)nc21 | 483000 a.u. and 502000 a.u. and 539000 a.u. |
| CC(=O)N1CCN(c2nc(NCc3nc4cc(Cl)c(Cl)cc4[nH]3)c3ncn(-c4cnn(C)c4)c3n2)CC1 | 457000 a.u. and 471000 a.u. and 524000 a.u. |
